# Measured values pooled from the literature.
# Lines come from different studies, so protocols differ. Numbers after ± are the reported error.
SMILES,assay,test system,setting,scale,quantity,value
CC#CC(=O)N[C@H]1CCCN(c2c(F)cc(C(N)=O)c3[nH]c(C)c(C)c23)C1,,healthy volunteers,"oral, 10 mg single dose, SAD phase I",,adverse events,83.3%
CCc1cc(C(=O)NC)c2nccc(N3CCc4c(cc(Cn5ccnc5)cc4-c4cn(C)nc4C(F)(F)F)C3=O)c2c1,,Sprague Dawley rat,"oral, 100 mg/kg once daily, day 7, 7-day toxicology study",,body weight,265 ± 3.9 g
O=C(Nc1ccc(OC(F)(F)Cl)cc1)c1cnc(N2CC[C@@H](O)C2)c(-c2ccn[nH]2)c1,"per treatment cycle, measured: lipase increase",human patients,"oral, dose not given, 28 day cycle, dose-finding study",,grade ≥3 event rate,2.3%
N#Cc1ccc(-c2cnc3ccc(-c4ccc(C(=O)N5CCOCC5)cc4)cn23)cc1,,healthy volunteers,"oral, 20 mg, fasted, time-averaged",,placebo-corrected heart rate change,0.1 bpm
C=CC(=O)N(C)CCOc1c(N)ncnc1-c1cc(F)cc(NC(=O)c2ccc(C3CC3)cc2F)c1C,,"human, whole blood","oral, 10 mg once daily, day 12",,AUC,24 ng·h/mL
CC(C)(C(=O)N1CCOc2c(C#N)cncc2C1)C(F)F,measured: Lymphadenopathy,human,"oral, 20 mg twice daily, 14 days, multiple ascending dose",,subjects with adverse event,0%
Cc1cc(C)c(CNC(=O)c2cc(Cl)c3c(c2C)O[C@@](C)([C@H]2CC[C@H](N(C)C)CC2)O3)c(=O)[nH]1,,relapsed/refractory NHL patients,"oral, 200 mg once daily, onset after cycle 1 day 1",,adverse event Arthralgia,16.7%
O=C(O)CCc1ccc(O)cc1O,,human CSF,"concentration not given, mean",,CSF concentration,not detected
Cc1cc(NC2CCN(C(=O)OC3CCN(C(=O)/C=C/CN(C)C)C3)CC2)n2ncc(C(C)C)c2n1 (stereo not drawn),,patients with advanced solid tumours,"dose not given, QD arm, any grade",,patients with Constipation,5%
FC(F)(F)c1ccc(CNc2ccc(Cc3c[nH]c4ncc(Cl)cc34)cn2)cn1,measured: Rash,"patients with advanced solid tumours, all cohorts","oral, 1000 mg/day, any grade",,treatment-related adverse events,14%
C[C@@H](Oc1ccc(S(C)(=O)=O)cc1C(=O)N1C[C@@H]2C[C@]2(c2cc(C(F)(F)F)on2)C1)C(F)(F)F,,"young humans, plasma","oral, 25 mg once daily, multiple dose, geometric mean",,half-life at steady state,47.9 h
OC[C@H]1O[C@@H](c2ccc(Cl)c(Cc3ccc(O[C@H]4CCOC4)cc3)c2)[C@H](O)[C@@H](O)[C@@H]1O,,"Japanese type 1 diabetes patients, blood","25 mg, day 28",relative to: baseline,change in Chloride,1 mEq/L
COc1c(O)cccc1OS(=O)(=O)O,,human CSF,"concentration not given, mean",,CSF concentration,not detected
N#Cc1ccc2c(c1)[C@H]1CCCN(C(=O)c3ccc4[nH]cnc4c3)[C@H]1C2,,human,"40 mg, day 15",,median ACTH level,7.4 pmol/L
CC(=O)N(C)[C@H]1CCN(C(=O)c2cnc3c(c2)C[C@](C)(c2ccc(F)cc2)N3)C1,measured: Lightheadedness,human,"oral, 15 mg once daily",,adverse event duration,1 days
C=CC(=O)Nc1cc(Nc2nccc(-c3cn(C)c4ccccc34)n2)c(OC)cc1N(C)CCN(C)C,storage stability,human plasma,"5 h, on ice, high QC level",,recovery,90.3%
Cc1cc(-c2nccc3c2ccn3CC(=O)Nc2ccc(-c3cnccn3)cn2)ccn1,,healthy human volunteers,"oral, 20 mg once daily, 14 days, multiple ascending dose",,respiratory thoracic mediastinal TEAEs,0%
CCN1C(=O)N(c2c(F)c(OC)cc(OC)c2F)Cc2cnc3[nH]c(CN4CCOCC4)cc3c21,"exposure-response model vs AUCss, measured: serum creatinine change from baseline",human,once daily monotherapy,,Emax,43.4%
COc1c(N2C[C@@H]3CCCN[C@@H]3C2)c(F)cc2c(=O)c(C(=O)O)cn(C3CC3)c12,,"male Hartley guinea pigs, anaesthetized","intravenous, 1 mg/kg over 10 min, after infusion",,heart rate,236 ± 0.3 beats/min
CO[C@@H]1[C@H](OC(=O)N2CC(CCN3CCOCC3)C2)CC[C@]2(CO2)[C@H]1[C@@]1(C)O[C@@H]1CC=C(C)C,,humans,"subcutaneous, 0.6 mg twice weekly for 4 weeks, day 28",relative to: baseline,systolic blood pressure,2.1 ± 9 mmHg
CCCCC1=NC2(CCCC2)C(=O)N1Cc1ccc(-c2ccccc2S(=O)(=O)Nc2noc(C)c2C)c(COCC)c1,,"healthy adult volunteers, plasma","oral, 200 mg, 14 days repeated dosing, fasted, crushed tablet",,AUC(0-inf),46700 ng·h/mL
CN(C(=O)n1cnc(-c2cccnc2)c1)[C@H]1CC[C@H](O)CC1,,"rat, cerebellum","oral, 10 mg/kg daily for 5 days, 48 h",,tissue concentration,13.1 ± 1 ng/g
CCN1/C(=C/C(C)=O)Sc2ccc(F)cc21,,cynomolgus monkey,"oral, 100 mg/kg, 1 h post-dose",relative to: pre-dose,mean blood pressure change,96.6 ± 2.5%
O=C1CCc2ccc(OCCCCN3CCN(c4cccc(Cl)c4Cl)CC3)cc2N1,,CYP2D6 poor metabolizers,"concentration not given, genotype-based phenotype, long-acting oral or depot",,cardiovascular symptom frequency,5.3%
CCn1c(=O)c(-c2cc(NC(=O)Nc3ccccc3)c(F)cc2Br)cc2cnc(NC)cc21,measured: investigations,"healthy human, matched to severe hepatic impairment","oral, 50 mg single dose",,participants with grade ≥ 3 TEAE,0%
O=c1oc2cc(O)ccc2c2ccccc12,,human CSF,"concentration not given, mean",,CSF concentration,not detected
C=CC(=O)Nc1cc(Nc2nccc(-c3cn(C4CC4)c4ccccc34)n2)c(OC)cc1N(C)CCN(C)C,,"BALB/c nude mouse, LU0387 xenograft, blood","oral, 40 mg/kg",,NEUT percentage,37.7 ± 5.3%
CCOc1c([C@H](C)n2nc(C)c3c(N)ncnc32)cc(Cl)c(F)c1[C@@H]1CNC(=O)C1,ECG,previously treated B-cell malignancy patients,"oral, 5 mg once daily, baseline QTcF ≤450 ms",,observations QTcF >480 ≤500 ms,0%
COC(=O)N[C@H](C(=O)N[C@@H](Cc1ccccc1)[C@@H](O)CN(Cc1ccc(-c2ccccn2)cc1)NC(=O)[C@@H](NC(=O)OC)C(C)(C)C)C(C)(C)C,,"50 mM phosphate buffer, 100 µg/mL HPMCAS","pH 6.5, 37 °C, average of three methods",,amorphous solubility,39.2 µg/mL
Cc1cc(Nc2cc3ncccc3c(N[C@@H]3C[C@H]4CC[C@@H](C3)N4CCC#N)n2)n[nH]1,,healthy human,"oral, 30 mg multiple doses, 14 days",,subjects with epistaxis,17%
COc1cc2nccc(Oc3ccc(NC(=O)c4cc5c(n(-c6ccccc6)c4=O)CCCC5=O)nc3)c2cc1OC,,"human, relapsed/refractory AML","oral, 3 mg once daily, CTCAE grading",,patients with TEAEs grade ≥3,100%
Cc1ccc([C@@H]2O[C@H](CO)[C@@H](O)[C@H](O)[C@H]2O)cc1Cc1ccc(-c2ccc(F)cc2)s1,,Japanese type 2 diabetes patients,"100 mg, day 15, 24 h urine collection",relative to: baseline,urinary magnesium excretion change,8.82 mg
NCCCCNCc1ccc(CNC(=O)c2csc3nc[nH]c(=O)c23)cc1,haemolysis,human red blood cells,"1 h, 37 °C",,EC50,> 100 µM
CNC(=O)c1ccc(-c2cnc3ncc(Cc4ccc5ncccc5c4)n3n2)cc1F,"measured: Cough, all grades",gastric cancer patients,"oral, 600 mg twice daily, expansion cohort, any causality",,patients with adverse event,0%
O=C(N[C@H](Cc1c[nH]c2ccccc12)C(=O)Nc1ccncc1)c1ccc(N2CCN(c3ccc(F)cc3F)CC2)cc1F,,"Swiss Webster mouse, female, plasma","oral, 50 mg/kg, 2 h, 20% Kolliphor vehicle",,concentration,4.37 µM
CNc1ccc(-c2nc3ccc(O)cc3s2)cc1 [carbon-11 labelled],ex vivo biodistribution,"normal B6SJL mice, brain stem","intravenous, 30 min",,uptake,0.241 ± 0.05 SUV
CNCc1ccc(-c2[nH]c3cc(F)cc4c3c2CCNC4=O)cc1,,patients,"oral, 600 mg twice daily, grade 4",,anaemia incidence,0%
Cc1cc(-c2nnc(N)nc2-c2ccc(F)cc2)cc(Cl)n1,"measured: decreased appetite, any grade",male IO-naive mCRPC patients,"oral, dose not given",,incidence of treatment-related AE,13.8%
C[C@@H](Oc1ccc(S(C)(=O)=O)cc1C(=O)N1C[C@@H]2C[C@]2(c2cc(C(F)(F)F)on2)C1)C(F)(F)F,,human,"oral, 25 mg",,incidence of Flatulence,16.7%
N[C@@H](Cc1ccc(O)c(O)c1)C(=O)O,actiwatch activity,"MPTP-lesioned marmoset, dyskinetic",20 mg/kg,,time to dyskinesia onset,≤ 30 min
Cc1c(-c2ccc(N3CCc4cccc(C(=O)Nc5nc6ccccc6s5)c4C3)nc2C(=O)O)cnn1CC12CC3(C)CC(C)(C1)CC(OCCNCC[C@H](O)CO)(C3)C2,,anaesthetized male beagle dog,"iv infusion, 0.1 mg/kg/min, 60 min",,plasma concentration,< 4 ng/mL
COc1cc(Nc2ncc3c(n2)-c2ccc(Cl)cc2C(c2c(F)cccc2OC)=NC3)ccc1C(=O)O,,patients,"oral, dose not given, grade 2, any attribution, added: pembrolizumab",,anaemia incidence,42%
Cn1cc(Nc2nccc(-c3ccc4c(c3)CN(C3COC3)CC[C@H]4NC(=O)c3cn(C(C)(C)C)nn3)n2)cn1,measured: NK cell count,"human, clinical trial, whole blood","150 mg twice daily, follow-up",,percent change from baseline,7.3%
O=C(O)[C@H]1O[C@@H](Oc2ccccc2O)[C@H](O)[C@@H](O)[C@@H]1O,,human CSF,"concentration not given, mean",,CSF concentration,not detected
CCO[C@H]1CCN(Cc2c(OC)cc(C)c3[nH]ccc23)[C@H](c2ccc(C(=O)O)cc2)C1,,"PNH patients, active haemolysis","oral, 25 mg, 4 weeks, treatment",,incidence of abdominal pain,0%
COc1cc(C2=CCCCc3c2ccc(OC)c3OC(C)c2ccc([N+](=O)[O-])s2)cc(OC)c1OC (stereo not drawn),"non-enzymatic, no POR",phosphate buffer,"24 h, pH 7.4",,parent drug release,0%
OC[C@H]1O[C@@H](c2ccc(Cl)c(Cc3ccc(O[C@H]4CCOC4)cc3)c2)[C@H](O)[C@@H](O)[C@@H]1O,,"human, plasma","oral, 25 mg, compound alone",,AUC(tau) at steady state,2910 ± 599 ng·h/mL
CC(C)NCC(O)COc1cccc2ccccc12 (stereo not drawn),,"male Hartley guinea pigs, anaesthetized","intravenous, 0.3 mg/kg group, baseline before infusion",,heart rate,222 ± 0.4 beats/min
COc1ncc(-c2nc3c(n2C(C)C)[C@H](c2ccc(Cl)cc2)N(c2cc(Cl)cn(C)c2=O)C3=O)c(OC)n1,,"human patients, plasma","oral, 15 mg, low-dose arm, cycle 1 day 8",,median Tmax,3.9 h
[18F]c1ccc(-c2ccc3c(c2)[nH]c2ccncc23)cn1,ex vivo biodistribution,"APP/PS1 Alzheimer mice, brain stem","intravenous, 30 min",,uptake,0.365 ± 0.021 SUV
C=C(NC(=O)c1nccc(OC)c1O)C(=O)O[C@@H](C)[C@H](OC(=O)C(C)C)[C@@H](Cc1ccccc1)C(=O)O,FOCUS PEARL groundwater modelling,soil,geometric mean input,,KOC,594 mL/g
O=C1c2ccncc2C(=O)c2c1[nH]c1ccccc21,,"Sprague-Dawley rat, male, lung","oral, 5 mg/kg, 24 h",,tissue concentration,0.002 ± 0.001 nmol/mg
CC1(C)S[C@@H]2[C@H](NC(=O)[C@H](N)c3ccc(O)cc3)C(=O)N2[C@H]1C(=O)O,,"male Hartley guinea pigs, anaesthetized","intravenous, 10 mg/kg over 10 min, after infusion",,heart rate,208 ± 0.2 beats/min
COc1ccc2c(=O)n(C)c(-c3ccccc3)nc2c1,,"Sprague-Dawley rat, male, testis","oral, 30 mg/kg, 0.5 h",relative to: testis over plasma,tissue/plasma ratio,1.33
Cc1ccc(C(=O)N(CCCN)C(c2nc3snc(C)c3c(=O)n2Cc2ccccc2)C(C)C)cc1 (stereo not drawn),pneumonia grade ≥3 (CTCAE),human patients,"intravenous, 18 mg/day",,patients with adverse event,0%
CN(CCC(=O)O)C(=O)c1ccc2c(c1)CC[C@@H]1[C@@H]2CC[C@]2(C)C(c3cncc(F)c3)=CC[C@@H]12,,"premenopausal women, endometriosis pain, serum","60 mg twice daily, visit 6, mean",relative to: baseline,indirect bilirubin change,0.47 mg/dL
CN1C(=O)[C@@H](NC(=O)c2nnc(Cc3ccccc3)[nH]2)COc2cccnc21,,"human, plasma","oral, 600 mg once daily, day 1, median",,Tmax,3.5 h
